Published values gathered from unrelated publications.
Protocols differ between the studies behind these lines. ± gives the spread as reported.
Cell line: MOLT-4

| Structure (SMILES) | observed | technique | tested at | time | with | quantity | result |
| --- | --- | --- | --- | --- | --- | --- | --- |
| O=C1Nc2ccccc2/C1=N\Nc1nnc2n1N=C(c1ccc(Cl)cc1)CS2 | cell growth or viability | SRB | 10 µM | – | – | inhibition | 17% |
| CC(=O)OC[C@H]1O[C@@H](Sc2sc(C(=O)c3ccc(Br)cc3)c(N)c2-c2nc3ccccc3s2)[C@H](OC(C)=O)[C@@H](OC(C)=O)[C@H]1OC(C)=O | – | SRB | 10 µM | 48 h | – | growth | 79.3% |
| CC(=C(c1ccc(O)cc1)c1ccc(Cl)cc1)c1ccc(Cl)cc1 | cell growth or viability | – | – | – | – | GI50 | 650 nM |
| CC(=O)OCC1(O)C(Nc2cccc(C(C)=O)c2)C(N)C(NC(=O)N(C)C)(C(C)OC(C)=O)C1(C)O (stereo not drawn) | cell growth or viability | SRB | – | – | – | GI50 | 330 nM |
| CCCCCCCCC=CCCCCCCCC(=O)OCC1OC(n2ccc(N)nc2=O)C(F)(F)C1O (stereo not drawn) | cell growth | – | – | – | NBMPR 100 µM | IC50 | 51 ± 33 nM |
| CC(C)N(CCOCCOCCOCCNc1cccc2c1C(=O)N(C1CCC(=O)NC1=O)C2=O)CC[C@H](CSc1ccccc1)Nc1ccc(S(=O)(=O)NC(=O)c2ccc(N3CCN(CC4=C(c5ccc(Cl)cc5)CCC(C)(C)C4)CC3)cc2)cc1S(=O)(=O)C(F)(F)F (stereo partly drawn) | cell growth or viability | MTS | – | 48 h | – | IC50 | 59.4 nM |
| Cc1sc2c(c1C)C(c1ccc(Cl)cc1)=N[C@@H](CC(=O)NCCCCCCCCC(=O)N1CCN(C(=O)c3cc(Cc4n[nH]c(=O)c5ccccc45)ccc3F)CC1)c1nnc(C)n1-2 | cell growth or viability | ATP luminescence | – | 72 h | – | IC50 | 131 nM |
| CC(=O)OC[C@H]1O[C@@H](Sc2sc(C(=O)c3ccc(C)cc3)c(N)c2-c2nc3ccccc3s2)[C@H](OC(C)=O)[C@@H](OC(C)=O)[C@@H]1OC(C)=O | – | SRB | 10 µM | 48 h | – | growth | 80% |
| COc1ccc(C2=Nn3c(NN=C4C(=O)N(C)c5ccc(Br)cc54)nnc3SC2)cc1 | cell growth or viability | SRB | 10 µM | – | – | inhibition | 18% |
| Cc1sc2c(c1C)C(c1ccc(Cl)cc1)=N[C@@H](CC(=O)NCC(=O)N1CCC3(CCC(C(=O)N4CCN(C(=O)c5cc(Cc6n[nH]c(=O)c7ccccc67)ccc5F)CC4)CC3)CC1)c1nnc(C)n1-2 | cell growth or viability | ATP luminescence | – | 72 h | – | IC50 | 4.6 nM |
| CC/C=C\C/C=C\C/C=C\C/C=C\C/C=C\C/C=C\CCC(=O)Nc1ccn(C2OC(CO)C(O)C2(F)F)c(=O)n1 (stereo not drawn) | cell growth or viability | SRB | – | – | – | GI50 | 69.2 nM |
| CC(Cc1ccc(Cl)cc1)=C(c1ccc(Cl)cc1)c1ccc(OCCN(C)C)cc1 | cell growth or viability | – | – | – | – | GI50 | 4010 nM |

For quick reference, copied from above:
| Structure (SMILES) | observed | technique | tested at | time | with | quantity | result |
| --- | --- | --- | --- | --- | --- | --- | --- |
| Cc1sc2c(c1C)C(c1ccc(Cl)cc1)=N[C@@H](CC(=O)NCC(=O)N1CCC3(CCC(C(=O)N4CCN(C(=O)c5cc(Cc6n[nH]c(=O)c7ccccc67)ccc5F)CC4)CC3)CC1)c1nnc(C)n1-2 | cell growth or viability | ATP luminescence | – | 72 h | – | IC50 | 4.6 nM |
